Measurements collected from several papers.
Every numbered part comes from another study and shows a few of its results, in no order.
Sequence of UniProt P51955 (whole entry, looked up): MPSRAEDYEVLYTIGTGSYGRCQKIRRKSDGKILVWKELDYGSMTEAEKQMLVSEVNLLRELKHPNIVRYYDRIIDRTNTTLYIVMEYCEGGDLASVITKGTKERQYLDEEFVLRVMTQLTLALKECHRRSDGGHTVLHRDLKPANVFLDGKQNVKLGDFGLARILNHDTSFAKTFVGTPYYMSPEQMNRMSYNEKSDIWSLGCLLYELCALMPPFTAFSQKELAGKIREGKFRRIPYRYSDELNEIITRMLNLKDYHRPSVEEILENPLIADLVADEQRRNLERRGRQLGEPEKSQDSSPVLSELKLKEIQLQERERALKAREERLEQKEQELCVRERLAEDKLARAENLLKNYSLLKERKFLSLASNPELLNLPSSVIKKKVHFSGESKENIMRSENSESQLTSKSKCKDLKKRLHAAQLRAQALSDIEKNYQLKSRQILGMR
Sequence of UniProt P07948 (whole entry, looked up): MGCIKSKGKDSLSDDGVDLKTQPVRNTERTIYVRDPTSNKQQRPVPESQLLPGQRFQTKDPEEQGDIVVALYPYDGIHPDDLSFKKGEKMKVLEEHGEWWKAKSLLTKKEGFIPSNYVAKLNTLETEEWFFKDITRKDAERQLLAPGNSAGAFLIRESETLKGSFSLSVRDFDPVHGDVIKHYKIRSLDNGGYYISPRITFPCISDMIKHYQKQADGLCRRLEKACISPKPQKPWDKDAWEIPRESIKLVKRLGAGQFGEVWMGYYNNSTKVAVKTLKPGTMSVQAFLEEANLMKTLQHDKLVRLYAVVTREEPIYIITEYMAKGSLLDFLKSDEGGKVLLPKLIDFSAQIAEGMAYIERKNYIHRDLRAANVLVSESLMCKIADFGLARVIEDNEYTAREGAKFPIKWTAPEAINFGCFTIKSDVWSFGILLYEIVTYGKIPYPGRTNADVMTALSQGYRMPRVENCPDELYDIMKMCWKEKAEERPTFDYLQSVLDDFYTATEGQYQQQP
Sequence of UniProt Q14164 (whole entry, looked up): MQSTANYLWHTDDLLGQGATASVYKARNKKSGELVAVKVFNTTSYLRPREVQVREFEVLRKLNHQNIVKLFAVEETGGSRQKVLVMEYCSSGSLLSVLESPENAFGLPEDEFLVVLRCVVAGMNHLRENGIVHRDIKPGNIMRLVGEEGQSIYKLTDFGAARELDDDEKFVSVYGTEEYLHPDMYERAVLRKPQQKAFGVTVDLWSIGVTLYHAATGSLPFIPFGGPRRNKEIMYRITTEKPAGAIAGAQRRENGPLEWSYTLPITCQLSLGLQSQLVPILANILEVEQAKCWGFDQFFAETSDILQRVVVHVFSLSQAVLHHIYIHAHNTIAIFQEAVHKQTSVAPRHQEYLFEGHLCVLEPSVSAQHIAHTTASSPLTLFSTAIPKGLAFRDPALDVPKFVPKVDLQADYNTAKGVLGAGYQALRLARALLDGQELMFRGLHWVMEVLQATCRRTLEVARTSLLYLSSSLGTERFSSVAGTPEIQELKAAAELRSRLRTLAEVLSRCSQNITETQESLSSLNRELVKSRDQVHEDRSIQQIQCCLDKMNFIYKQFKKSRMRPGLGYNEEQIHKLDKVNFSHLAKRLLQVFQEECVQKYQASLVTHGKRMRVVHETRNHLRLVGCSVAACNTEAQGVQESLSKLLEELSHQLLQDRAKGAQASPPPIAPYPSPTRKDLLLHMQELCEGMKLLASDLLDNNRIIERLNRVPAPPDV
Sequence of UniProt O94804 (whole entry, looked up): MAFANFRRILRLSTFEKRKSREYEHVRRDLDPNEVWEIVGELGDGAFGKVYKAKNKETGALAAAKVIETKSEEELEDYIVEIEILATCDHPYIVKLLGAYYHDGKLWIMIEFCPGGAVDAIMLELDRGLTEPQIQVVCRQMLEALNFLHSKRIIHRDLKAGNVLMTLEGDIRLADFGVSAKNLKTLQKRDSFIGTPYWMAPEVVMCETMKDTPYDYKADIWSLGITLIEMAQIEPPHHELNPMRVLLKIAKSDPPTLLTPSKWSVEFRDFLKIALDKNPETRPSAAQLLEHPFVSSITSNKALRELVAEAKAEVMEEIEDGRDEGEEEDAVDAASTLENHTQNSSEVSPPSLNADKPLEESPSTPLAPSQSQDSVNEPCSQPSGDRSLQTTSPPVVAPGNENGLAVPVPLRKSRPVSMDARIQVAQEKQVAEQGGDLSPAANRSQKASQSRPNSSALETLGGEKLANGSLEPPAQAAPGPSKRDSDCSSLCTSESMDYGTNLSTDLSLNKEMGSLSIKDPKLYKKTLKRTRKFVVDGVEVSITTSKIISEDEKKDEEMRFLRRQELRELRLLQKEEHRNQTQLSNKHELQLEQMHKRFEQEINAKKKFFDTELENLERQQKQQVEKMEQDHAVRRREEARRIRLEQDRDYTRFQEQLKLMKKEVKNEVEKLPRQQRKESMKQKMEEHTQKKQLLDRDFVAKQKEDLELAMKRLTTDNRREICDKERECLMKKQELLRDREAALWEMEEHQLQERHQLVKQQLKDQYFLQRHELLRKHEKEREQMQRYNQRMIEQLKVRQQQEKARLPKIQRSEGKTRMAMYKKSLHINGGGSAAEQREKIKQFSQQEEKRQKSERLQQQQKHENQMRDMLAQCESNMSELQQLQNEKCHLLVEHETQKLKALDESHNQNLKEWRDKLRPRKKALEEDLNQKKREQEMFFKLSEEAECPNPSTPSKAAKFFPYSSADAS
Sequence of UniProt P45984 (whole entry, looked up): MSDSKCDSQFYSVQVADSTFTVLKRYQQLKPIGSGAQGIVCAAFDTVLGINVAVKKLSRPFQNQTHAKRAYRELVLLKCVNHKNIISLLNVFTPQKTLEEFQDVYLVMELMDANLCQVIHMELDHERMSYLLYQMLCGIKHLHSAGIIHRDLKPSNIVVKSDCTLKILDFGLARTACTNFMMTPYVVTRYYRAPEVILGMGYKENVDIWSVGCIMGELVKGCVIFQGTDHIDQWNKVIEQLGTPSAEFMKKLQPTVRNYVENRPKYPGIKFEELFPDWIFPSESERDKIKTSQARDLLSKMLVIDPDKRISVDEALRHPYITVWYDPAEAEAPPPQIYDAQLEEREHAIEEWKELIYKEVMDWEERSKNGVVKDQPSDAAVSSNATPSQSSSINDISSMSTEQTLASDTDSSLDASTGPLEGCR
Sequence of UniProt Q9UIK4 (whole entry, looked up): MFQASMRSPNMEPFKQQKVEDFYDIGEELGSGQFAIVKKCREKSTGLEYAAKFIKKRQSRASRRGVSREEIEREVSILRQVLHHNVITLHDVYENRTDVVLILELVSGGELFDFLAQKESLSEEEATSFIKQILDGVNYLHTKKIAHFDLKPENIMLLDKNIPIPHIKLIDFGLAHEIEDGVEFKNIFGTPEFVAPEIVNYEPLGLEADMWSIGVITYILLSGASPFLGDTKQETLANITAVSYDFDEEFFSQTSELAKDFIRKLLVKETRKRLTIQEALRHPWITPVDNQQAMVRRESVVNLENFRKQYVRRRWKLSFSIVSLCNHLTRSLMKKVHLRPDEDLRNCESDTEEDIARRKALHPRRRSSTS
Sequence of UniProt P05771 (whole entry, looked up): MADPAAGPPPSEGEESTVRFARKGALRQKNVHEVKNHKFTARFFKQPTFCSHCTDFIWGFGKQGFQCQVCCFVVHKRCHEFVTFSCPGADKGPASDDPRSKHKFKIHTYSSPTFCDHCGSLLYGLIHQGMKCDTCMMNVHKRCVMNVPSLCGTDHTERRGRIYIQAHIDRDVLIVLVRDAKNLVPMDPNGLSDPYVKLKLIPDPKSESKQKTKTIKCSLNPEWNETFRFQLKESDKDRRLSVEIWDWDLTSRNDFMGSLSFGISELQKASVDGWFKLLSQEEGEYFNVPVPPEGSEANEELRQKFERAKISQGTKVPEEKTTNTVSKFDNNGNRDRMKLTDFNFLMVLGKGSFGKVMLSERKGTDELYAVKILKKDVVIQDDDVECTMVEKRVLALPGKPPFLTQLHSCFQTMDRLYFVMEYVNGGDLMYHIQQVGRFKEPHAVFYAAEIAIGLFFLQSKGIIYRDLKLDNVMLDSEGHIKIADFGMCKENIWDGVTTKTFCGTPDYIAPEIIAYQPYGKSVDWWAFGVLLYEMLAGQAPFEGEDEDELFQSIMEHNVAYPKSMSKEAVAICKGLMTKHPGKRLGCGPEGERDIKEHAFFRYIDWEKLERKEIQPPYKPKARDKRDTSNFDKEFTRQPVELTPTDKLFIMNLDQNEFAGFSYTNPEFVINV
Sequence of UniProt P37173 (whole entry, looked up): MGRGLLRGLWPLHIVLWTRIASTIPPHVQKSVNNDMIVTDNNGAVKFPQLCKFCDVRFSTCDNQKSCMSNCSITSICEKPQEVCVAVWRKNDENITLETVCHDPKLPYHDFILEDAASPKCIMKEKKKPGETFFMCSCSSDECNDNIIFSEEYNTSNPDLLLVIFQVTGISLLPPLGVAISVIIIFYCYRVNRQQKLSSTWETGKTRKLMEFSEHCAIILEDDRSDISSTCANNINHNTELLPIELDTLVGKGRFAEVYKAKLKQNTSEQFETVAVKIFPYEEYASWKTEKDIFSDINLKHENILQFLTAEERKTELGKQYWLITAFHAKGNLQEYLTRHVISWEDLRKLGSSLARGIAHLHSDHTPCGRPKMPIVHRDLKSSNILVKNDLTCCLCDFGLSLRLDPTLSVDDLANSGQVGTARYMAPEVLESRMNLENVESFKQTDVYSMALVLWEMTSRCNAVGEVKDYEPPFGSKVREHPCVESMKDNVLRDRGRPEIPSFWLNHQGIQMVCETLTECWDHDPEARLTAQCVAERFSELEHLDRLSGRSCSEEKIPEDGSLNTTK
Sequence of UniProt P11802 (whole entry, looked up): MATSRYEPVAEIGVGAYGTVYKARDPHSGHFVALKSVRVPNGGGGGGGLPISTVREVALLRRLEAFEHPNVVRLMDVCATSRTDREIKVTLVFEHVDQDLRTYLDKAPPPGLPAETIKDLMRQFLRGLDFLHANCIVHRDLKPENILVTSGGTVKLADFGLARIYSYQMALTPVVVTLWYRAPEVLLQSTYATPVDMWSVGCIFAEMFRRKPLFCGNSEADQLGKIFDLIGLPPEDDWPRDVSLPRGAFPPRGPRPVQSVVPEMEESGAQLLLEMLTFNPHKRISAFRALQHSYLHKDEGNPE

Series 1
SMILES: O=C1NC(=O)c2c1c1c3ccccc3n3c1c1c2c2ccccc2n1[C@H]1CC[C@@H]3O1
Effect on: enzyme activity
Action: inhibitor
Concentration: 0.5 µM
Reference: control
| target | remaining activity [%] |
| --- | --- |
| NEK2 (Homo sapiens, UniProt P51955) | 93.8 |
| STK11 (Homo sapiens, UniProt Q15831) | 50.5 |
| Tyrosine-protein kinase Lyn, isoform B (LYN, Homo sapiens, UniProt P07948) | 73.6 |
| cGMP-dependent protein kinase 1, isoform beta (PRKG1, Homo sapiens, UniProt Q13976) | 41.3 |
| DAPK2 (Homo sapiens, UniProt Q9UIK4) | 39.4 |
| CAMK2D (Homo sapiens, UniProt Q13557) | 7.03 |
| CAMKK2 (Homo sapiens, UniProt Q96RR4) | 7.93 |
| STK10 (Homo sapiens, UniProt O94804) | 9.25 |
| MAP3K3 (Homo sapiens, UniProt Q99759) | 18.4 |
| MAPK9 (Homo sapiens, UniProt P45984) | 96.1 |
| Cyclin-dependent kinase 5, with p25 (CDK5, Homo sapiens, UniProt Q00535) | 28 |
| STK39 (Homo sapiens, UniProt Q9UEW8) | 88.3 |
| PRKCA (Homo sapiens, UniProt P17252) | 13.9 |
| Protein kinase C beta type, isoform beta-I (PRKCB, Homo sapiens, UniProt P05771) | 22.5 |
| GRK3 (Homo sapiens, UniProt P35626) | 101 |
| Cyclin-dependent kinase 4, with cyclin D1 (CDK4, Homo sapiens, UniProt P11802) | 11.2 |
| PRKACA (Homo sapiens, UniProt P17612) | 44.7 |
| TGFBR1 (Homo sapiens, UniProt P36897) | 110 |
| CHEK2 (Homo sapiens, UniProt O96017) | 13 |
| TGFBR2 (Homo sapiens, UniProt P37173) | 70.3 |
| DAPK1 (Homo sapiens, UniProt P53355) | 32.7 |
| IKBKB (Homo sapiens, UniProt O14920) | 97.8 |
| OXSR1 (Homo sapiens, UniProt O95747) | 92.4 |
| IKBKE (Homo sapiens, UniProt Q14164) | 23.9 |

Series 2
Cell line: HEK-293T-ACE2-TMPRSS2
Technique: cell count
Concentration: concentration not given
| Compound | viability |
| --- | --- |
| CCC1Oc2ccc(S(=O)(=O)N3CCN(C(=O)c4ccc(C#N)cc4F)CC3)cc2NC1=O (stereo not shown) | 71% |
| CCOc1ccc(-c2c(C)nn3c(-c4ccccc4)c(C(=O)Nc4cccnc4)cnc23)cc1OCC | 71% |
| COc1cccc(N2CCN(c3ncc4c(n3)CC(c3ccccc3O)CC4=O)CC2)c1 (stereo not shown) | 65% |
| CCOC(=O)C1(CCCc2ccccc2)CCN(C(=O)c2cnsn2)CC1 | 107% |
| CSC1=NNC(c2ccccn2)S1 (stereo not shown) | 67% |
| O=C(CN1CC(=O)Oc2ccccc21)Nc1cc(C(F)(F)F)ccc1N1CCCCC1 | 67% |
| O=C(NC1CCN(Cc2ccccc2)CC1)c1cccc(Nc2cc(-c3ccc(F)cc3)ncn2)c1 | 72% |
| COC(=O)c1cc(/C=C/C(=O)O)oc1C | 101% |
| CC(NCCC(c1ccccc1)c1ccco1)c1ccc(Cl)cc1 (stereo not shown) | 199% |
| Cc1ccc(NC(=O)c2cc3cc(N(C)S(C)(=O)=O)ccc3s2)c(C)c1 | 67% |
| CN1CCN(Cc2c(O)c(Cl)cc3c4c(c(=O)oc23)CCC4)CC1 | 66% |
| CCCCOC(=O)C1=C(N)OC2=C(C(=O)CC(C)(C)C2)C12C(=O)Nc1ccc(Br)cc12 (stereo not shown) | 94% |
| Cc1nc(C)c(C(=O)NC(C)c2cnn(-c3ccccc3C)c2C)s1 (stereo not shown) | 67% |
| COc1ccc(C(=O)/C=C/Sc2nc3ccccc3o2)cc1 | 69% |
| CCn1cccc1-c1nc(C)c(C(=O)NCc2cc(OC)c(OC)c(OC)c2)s1 | 116% |
| O=C1CN(C(=O)COc2ccc(C3SCCCS3)cc2)CCN1 | 100% |

Series 3
Target: Diamine acetyltransferase 1 (Homo sapiens, UniProt P21673)
Action: inhibitor
Concentration: 10 µM
Reference: control
Target sequence (P21673 1-171): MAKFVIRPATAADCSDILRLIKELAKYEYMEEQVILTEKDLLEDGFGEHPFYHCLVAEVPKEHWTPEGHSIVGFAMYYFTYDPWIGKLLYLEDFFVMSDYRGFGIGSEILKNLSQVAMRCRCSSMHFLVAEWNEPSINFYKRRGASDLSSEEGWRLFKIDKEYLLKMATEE
| Compound | remaining activity |
| --- | --- |
| C/C=C/C#CC#C/C=C/c1ccco1 | 100% |
| CNC(=O)Oc1ccccc1OC(C)C | 104% |
| NCCc1ccc(O)cc1 | 102% |
| O=c1cc(O)c2ccccc2o1 | 103% |

Series 4
Cell line: HaCaT
Concentration: 100 µM
Time: 36 h
| Structure (SMILES) | viability [%] |
| --- | --- |
| CN1CCc2cc3c(cc2[C@H]1[C@@H]1OC(=O)c2c1ccc1c2OCO1)OCO3 | 92 |
| CCO[C@H]1O[C@@H]2O[C@@]3(C)CC[C@H]4[C@H](C)CC[C@@H]([C@H]1C)[C@@]24OO3 | 43.5 |
| CCCC[N+]1(C)[C@@H]2C[C@@H](OC(=O)[C@H](CO)c3ccccc3)C[C@H]1[C@@H]1O[C@@H]12 (stereo partly shown) | 96.5 |
| C[C@@H]1O[C@@H](O[C@H]2C[C@@H](O)[C@]3(CO)[C@H]4[C@H](O)C[C@]5(C)[C@@H](C6=CC(=O)OC6)CC[C@]5(O)[C@@H]4CC[C@]3(O)C2)[C@H](O)[C@H](O)[C@H]1O | 6.35 |
| CCCCC(C#N)(Cn1cncn1)c1ccc(Cl)cc1 (stereo not shown) | 77.6 |
| CC(C)=CCOc1c2occc2cc2ccc(=O)oc12 | 24.5 |
| Cc1cccc(C)c1N=C1NCCCS1 | 83.2 |
| C[C@]12CC[C@H]3[C@@H](CC[C@@]45O[C@@H]4C(O)=C(C#N)C[C@]35C)[C@@H]1CC[C@@H]2O | 97 |

Some of these lines once more (series 4):
| Structure (SMILES) | viability [%] |
| --- | --- |
| CC(C)=CCOc1c2occc2cc2ccc(=O)oc12 | 24.5 |
| Cc1cccc(C)c1N=C1NCCCS1 | 83.2 |
| C[C@]12CC[C@H]3[C@@H](CC[C@@]45O[C@@H]4C(O)=C(C#N)C[C@]35C)[C@@H]1CC[C@@H]2O | 97 |
| CCCCC(C#N)(Cn1cncn1)c1ccc(Cl)cc1 (stereo not shown) | 77.6 |
